Measured values from different studies.
Numbered parts are unrelated; each lists some results of a single study.

Sample 1
Target: Fragile X messenger ribonucleoprotein 1, C-terminal low-complexity region (Fmr1, Mus musculus, UniProt P35922)
Technique: RNA Bind-n-Seq
Form: RNA
Medium: in vitro
Tested at: 200 nM
Notes: whole 134-nt RNA, ends assumed
With: 150 mM LiCl
Relative to: input library
Reading: higher = stronger binding
Measurement: log2 enrichment
Each molecule: 7-deaza-guanosine replaces G
All sequences stand within: GGGAGUUCUACAGUCCGACGAUC … UGGAAUUCUCGGGUGUCAAGG
UGGGAGGUGGAUUUUGUUUAUUUUUUUAGCUCAUUUCCAGGGGUGUGAAUUUUUUUUUAAUAUGUGUCAUGAAUAAAGUUGUUUUUGAAA: -0.387
AAGUCCUGUGCUACACAUCGUAUGUACCGAAUCGGUUUUUUUGGUUUGGAAAAAGGAAAGUAUUAUGUUACGCCGUUCGGAUCUGCACUU: -2.72
UCCUGUGCUACACAUCGUAUGUACCGAAUCGGGGUUUGGGGUUUUUGGGGAAAAAGGGGAAAGUAUUAUGUUACGCCGUUCGGAUCUGCA: -0.748
CCUGUGCUACACAUCGUAUGUACCGAAUCGGAAAAAAAGGGGAAAAAAAGGAAAAAAAGGAAAGUAUUAUGUUACGCCGUUCGGAUCUGC: -0.628
UCAAGUCCUGUGCUACACAUCGUAUGUACCGAAUCGGGGCCGGGGCCGGCCGGGAAAGUAUUAUGUUACGCCGUUCGGAUCUGCACUUCC: -0.0539
UGGGAGGUGGAUUUUGUUUAUUUUUUUAGCUCAUUUCUAGGGGUGGGAAUUUUUUUUUAAUAUGUGUCAUGAAUAAAGUUGUUUUUGAAA: 0.883
UCAAGUCCUGUGCUACACAUCGUAUGUACCGAAUCGGAAAAAGGUGGUUUUUGGAAAGUAUUAUGUUACGCCGUUCGGAUCUGCACUUCC: -0.538
UCCUGUGCUACACAUCGUAUGUACCGAAUCGGAAAAAAGGGGAAAAAAGGAAAAAAGGGAAAGUAUUAUGUUACGCCGUUCGGAUCUGCA: -0.276
AGUCCUGUGCUACACAUCGUAUGUACCGAAUCGGCCCCCGGGCCCCCGGGCCCCCGGGAAAGUAUUAUGUUACGCCGUUCGGAUCUGCAC: -2.61
GUCCUGUGCUACACAUCGUAUGUACCGAAUCGGGGUUUGGGGUUUGGGGUUUUUGGGGAAAGUAUUAUGUUACGCCGUUCGGAUCUGCAC: -0.817
UGGGAGGUGGAUUUUGUUUAUUUUUUUAGCUCAUUUCCAGGGGUGGGAAUUUUUUUUUAAUAUGUGUCAUGAGUAAAGUUGUUUUUGAAA: 0.866

Sample 2
Target: RNA binding protein fox-1 homolog 2, RRM domain, GST-SBP tag (RBFOX2, Homo sapiens, UniProt O43251-10, residues 100-194)
Technique: RNA Bind-n-Seq
Form: RNA
Medium: in vitro
Tested at: 365 nM
Notes: natural RNA segment, single round, ends assumed
Relative to: no-protein control
Reading: higher = stronger binding
Measurement: RBNS enrichment (R)
All sequences stand within: GGGAGUUCUACAGUCCGACGAUC … UGGAAUUCUCGGGUGCCAA
Residues (chain): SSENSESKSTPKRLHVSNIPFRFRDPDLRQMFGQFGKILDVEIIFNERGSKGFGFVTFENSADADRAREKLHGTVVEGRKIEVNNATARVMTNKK
UGUUCUUUCUUCCCAUCUAGGGCUAUUGCCCAAGGCCCAGAGAAACCAAUAAACUUGUACACGAGUGAUCCACAGUUGAGUCAAUGUGGCUCCGAAGGGGCGCUCUUGUC: 0.28
GCUUCGAAGGCGAACUUACCAAGUCUCUGCAGGACAUGGAGCUACAGUCGUUGUUUGAAUCACCCGACUUCAGCAAGAUUACUGGCAAACCCGUGAAGCUCACCCAAGUG: 0.339
GGAUAGAGACUGCUGGGUUCGUCCCAGCCUGCCCAUCCCUAUUACAAACACUGGACACCAUCACCUCUUUGGAACUGCCAGACCCUGGGAGUUCCCAGCGCGAAAGGUCU: 0.215
GGAGGCAGCGCCCGAAUGAAGAGGCCUGUAGUGGACAUGCUCCUAAUCUUGCUGUCUGCCUUCCUAGCCUUUUCCACCUUGGCUUGCCUCUGAGGGUAGAUUUUUUUUUU: 0.488
AUCCUUCACUGUGGCCUUUUCAAGCUCAGCUGUUCCUGUUGUAUUUGAGACGAGGGUGAGGGAAUGUGGUGGCCACAAAAGAACAGGGACUUGCAGCACAAAUGUCACUU: 1.02
AUAUUCAAAUAGAGGCUCACAGCGGCAUAAGCUGGACUUUGUCGCCACUAGAUGACAAGAUGUUAUAACUAAGUUAAACCACAUCUGUGUAUCUCAAGGGACUUAAUUCA: 0.258
CAUUUUUUUGUGUGAAGUAAAUUAAUCAACUAGAGAGGUGCAAAACGUUCUCAGUUGAUAUCUGAGUAUUGGGUGCAUUUGGUGGCUUAAAAGCAAAGCUUCCUAAAAAG: 0.486
UGUCUCUGCUUCCAUGGCUUCCUGAGAAAGCCCACCUGGGCUGGGCGCGGUGGCUCACGCCUGUAAUCCCAGCACUUUGGGAGGCCAAGGUGGGCGGAUCACAAGGUCAG: 0.257
CCAGGUUUUUGUCAGGUACCACAUGUAGAAUUACAUUUUUCUUAAAAGAUUGAUCAUCCAAAUGGCAAAUUUCUUAGAGUCCAUAACUGAUUUGAUAGAUUUUUCUUUUU: 0.721
CCACAGCUUCCUUUGGAGGGGCAAGAAGUUGGCCUCUCGGUUGACAUUCCAGAGAAAUGGCCAGACUUGCCCCUACCCUUUUGCCCCUGGUGUAGCUGCCUCACAUGAGG: 0.291
AAUGUUAUCUUGUGAAAGGUGUUGCUGUUUGAAUUGAUGAGAAAUGGAAGAUGAGAACUCCCUAAGAGUUCUCAUAAUAAAUCAUCUCAUCACAAAUCAAUACGGUAUAC: 0.249
AAAUCUCUGAGGUAUCAAAGAAUUUCUCCAUGAAGCCAGAUAAGUAUUCAAGAAUGCAUGGACCAGUAUAGGUUCGCUCUUGUUUCUACACCUCCAGAAUGAUAGCUGAC: 0.661

Sample 3
Target: Histone acetyltransferase KAT6A, winged helix 1, GST fusion (KAT6A, Homo sapiens, UniProt Q92794, residues 1-85)
Technique: protein binding microarray
Form: double-stranded DNA, one strand shown
Medium: in vitro
Tested at: not given
Notes: 8-mer, flanks averaged, mean of 2 arrays, mostly near background
Relative to: not given
Reading: higher = stronger binding
Measurement: E-score
Target sequence (chain): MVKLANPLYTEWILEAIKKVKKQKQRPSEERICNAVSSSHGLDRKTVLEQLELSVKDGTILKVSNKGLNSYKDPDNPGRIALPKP
ACTGTGCC: -0.0791
CTCGAACC: -0.0738
TATTTCCA: -0.195
TGACAGCA: -0.109
ACAAATAG: -0.0553
AATTTAAG: -0.129
GGAGCGGA: 0.223
ACTTACGA: -0.135
GACATCGC: 0.217
ATACTGTC: -0.123
CCGAACCC: 0.0663
ACAGGCTG: -0.155
CATCGACA: -0.11
CTCCATCC: -0.114
CGGGCATA: 0.245
AATTAAGT: -0.109
AAACTTAG: -0.112
AATGCAAA: -0.223
ATCAACGG: 0.0355
GGCTTACC: 0.155

Sample 4
Target: RING finger protein unkempt homolog, zinc fingers 1-6, GST-SBP tag (UNK, Homo sapiens, UniProt Q9C0B0, residues 30-357)
Technique: RNA Bind-n-Seq
Form: RNA
Medium: in vitro
Tested at: not given
Notes: RNA with constant flanks, ends assumed
Relative to: input RNA pool
Reading: higher = stronger binding
Measurement: bound/input enrichment
All sequences stand within: GGGAGUUCUACAGUCCGACGAUC … CAACAGAGGAUUGAGCAUCA
Construct (chain): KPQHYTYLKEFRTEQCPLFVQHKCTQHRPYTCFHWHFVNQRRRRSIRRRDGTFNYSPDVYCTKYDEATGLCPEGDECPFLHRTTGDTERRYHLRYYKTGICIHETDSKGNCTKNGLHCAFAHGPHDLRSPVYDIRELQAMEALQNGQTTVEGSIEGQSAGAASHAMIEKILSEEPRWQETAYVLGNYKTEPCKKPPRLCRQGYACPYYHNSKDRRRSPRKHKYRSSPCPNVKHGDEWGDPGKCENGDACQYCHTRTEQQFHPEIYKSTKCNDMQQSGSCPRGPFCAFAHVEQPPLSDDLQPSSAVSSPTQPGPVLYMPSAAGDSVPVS
AUCGUUGAGGAGUCUUUUAAAUUAGAUUUUUGUUUUGUUGUCUCCCAAGUUAAUAUUAUAUUCCGAUAUCAGAGAGUCAGGCAAAAAGGAAAACUUUUAUCUCUAGGGAAAAAACAUUUA: 3.54 ratio
CAUGCAUUUUAUUGGGGAUGGGAGGUUGGAAUAAUUUAUCCAAAUCUAAUGGUAUUAUUUCACCGGCUAAUCCAGUUUGUAUUUGAGUUAAAGAUCCCAGAGUGUAGUAAUUAAUUGCAG: 0.856 ratio
CCUCUUCUGGCCUGCCUCCUUGGCAACGACAUAAUCCCAGAGGGCAUGUUUGAAAGCUUCCGGUACAAAUGCUUAUCGUCCUACACCUCUGUAAAAGAGAACUUUGACAAAAAAGGUAAC: 0.0857 ratio
GUAUCGGGGCGGGGUGUGUGUGUGCAUGGAAGAUGCCUGGGCUGUCUUUGCUAUAUGUAAACCGAGCCAUUGGAUCUUUAUUUUUGAUUAAUUUGUUCUGAUUUUUUGGUUUGUUUUUUA: 0.677 ratio
AACGAUGUUGAAGUCAAAUGGAUUGAAUACCAGAAUAUGGUGAACUACCUCAUCCAGUGGAUCCGACACCACGUGGUCACUAUGUCCGAGAGAACAUUUCCUAACAACCCUCUAGAACUA: 0.171 ratio
GCAGGUGUCAAUAGUGAUAGCCCUAAUAACUGUUCAGGAAAAAAGGUAGAACCUUCAGCUUCCGCUUGCCGAUCACAGAAUUUAAAGGAAUCUUCAGUAAAAGUAGAUAAUGAAAGCUGU: 0.594 ratio
CUGAAACCAGCCAAUGUUUUCCUGGAUGGCAAGCAAAACGUCAAGCUUGGAGACUUUGGGCCCGCCCGAAUAUUAAACCAUGACACGAGUUUUGCAAAAACAUUUGUUGGCACACCUUAU: 0.204 ratio
UGGAUGUACACGUUCUCACGAGCUGCGAUUCUCCUUAGCAUUGUAUACUUCUAUUCUUCUUUCCGUCGGUUUAUCAUGGUAAUGGGAGCCAUGCUACUGGUUUAUUUACACCAAGCUGGA: 1.24 ratio
GGACGGUGCUGGUUUUCUACCUGCUUACUCUUGUUCUCACAGGCAGGGGACCAGCAACCCCCGAUAUUUCUGGAACUUCUUUGACCUGGAAGGAACCUUUGGGAGCUGUGACUCCCUGUG: 0.16 ratio
CUUAAAGAGCUUGAAGCUAAAGCCUAUAAACAGAUUGAUGCACGUGGUGGGAACCCUGAGCCCGCCGCCUUAGUAAAACACUUAAGUAAGAUGUUCAAAGAAGAAAAUGAAUAAUGUUAA: 2.49 ratio
AGCAUGGACUCGAAAGCAAAUAUUGUACAUGGUCUAUCAGUCUUGGAAAUCUGUCUUAUAACCGCAAUGAAACAUUUAAAUGACAUCUAUGAGGAAGAGCCAUUUAAUUUUCAAAUGGUC: 0.183 ratio

Sample 5
Target: Sal-like protein 4, full length isoform A (SALL4, Homo sapiens, UniProt Q9UJQ4, residues 1-1053)
Sequence of UniProt Q9UJQ4 (whole entry, looked up): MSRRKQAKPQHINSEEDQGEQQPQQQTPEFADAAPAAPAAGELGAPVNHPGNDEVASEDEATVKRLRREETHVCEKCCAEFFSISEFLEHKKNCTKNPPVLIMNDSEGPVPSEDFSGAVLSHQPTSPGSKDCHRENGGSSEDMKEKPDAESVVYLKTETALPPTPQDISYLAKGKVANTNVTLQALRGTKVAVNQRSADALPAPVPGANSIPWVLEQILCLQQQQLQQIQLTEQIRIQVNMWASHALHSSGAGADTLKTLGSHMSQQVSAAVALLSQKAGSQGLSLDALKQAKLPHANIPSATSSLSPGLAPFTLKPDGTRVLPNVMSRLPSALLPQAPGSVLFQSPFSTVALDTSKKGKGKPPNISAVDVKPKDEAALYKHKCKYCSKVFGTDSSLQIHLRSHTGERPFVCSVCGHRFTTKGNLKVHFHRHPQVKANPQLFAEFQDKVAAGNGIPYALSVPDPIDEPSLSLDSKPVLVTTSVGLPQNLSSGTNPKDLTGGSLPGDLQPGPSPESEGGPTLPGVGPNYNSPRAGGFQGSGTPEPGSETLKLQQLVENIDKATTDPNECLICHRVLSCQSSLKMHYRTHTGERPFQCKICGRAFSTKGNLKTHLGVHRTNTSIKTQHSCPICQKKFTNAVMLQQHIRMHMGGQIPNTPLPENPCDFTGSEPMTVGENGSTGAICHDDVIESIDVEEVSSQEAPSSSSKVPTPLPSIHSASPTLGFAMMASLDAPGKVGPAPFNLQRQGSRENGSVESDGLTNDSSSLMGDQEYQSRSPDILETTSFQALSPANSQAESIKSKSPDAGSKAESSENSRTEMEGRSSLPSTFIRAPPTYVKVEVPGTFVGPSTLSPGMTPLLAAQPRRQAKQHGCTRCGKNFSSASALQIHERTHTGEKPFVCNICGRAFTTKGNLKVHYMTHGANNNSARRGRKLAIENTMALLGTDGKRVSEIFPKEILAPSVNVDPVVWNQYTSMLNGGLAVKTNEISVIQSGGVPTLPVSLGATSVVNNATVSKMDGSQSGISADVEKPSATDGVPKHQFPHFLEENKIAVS
Technique: universal PBM
Form: double-stranded DNA, one strand shown
Medium: in vitro
Tested at: 600 nM
Notes: 8-mer, flanks averaged, mean of replicates
Reading: higher = stronger binding
Measurement: E-score
AATCAACG: 0.0948
AGCAAGAA: 0.17
ATTGCCCA: 0.0698
GTTGGAGA: 0.0495
GTTAGCAA: 0.103
ACCCAAAT: 0.105
ATGGGTTA: 0.156
CGTGCAAC: -0.113
CATCTTGC: -0.0456
AGTTGAAT: 0.167
AGTTTTAT: 0.286
GCCAGCCA: -0.225
ATACACCA: 0.0379
AGGCTTAT: 0.128
ATACCCTC: -0.00142
TCGAACCA: -0.134
ACTCGACC: -0.0892
GCTGACAA: 0.0981
ACGTCGCG: -0.164
ATTTACAG: 0.237
ATAATCTC: 0.289
CCCGGATC: -0.262
AGTCACGA: -0.0411
AAAAGTCG: 0.0565
TAGGATAA: 0.167

A few entries again (sample 1):
GUCCUGUGCUACACAUCGUAUGUACCGAAUCGGGGUUUGGGGUUUGGGGUUUUUGGGGAAAGUAUUAUGUUACGCCGUUCGGAUCUGCAC: -0.817
UCCUGUGCUACACAUCGUAUGUACCGAAUCGGGGUUUGGGGUUUUUGGGGAAAAAGGGGAAAGUAUUAUGUUACGCCGUUCGGAUCUGCA: -0.748
UCCUGUGCUACACAUCGUAUGUACCGAAUCGGAAAAAAGGGGAAAAAAGGAAAAAAGGGAAAGUAUUAUGUUACGCCGUUCGGAUCUGCA: -0.276
UGGGAGGUGGAUUUUGUUUAUUUUUUUAGCUCAUUUCUAGGGGUGGGAAUUUUUUUUUAAUAUGUGUCAUGAAUAAAGUUGUUUUUGAAA: 0.883
UGGGAGGUGGAUUUUGUUUAUUUUUUUAGCUCAUUUCCAGGGGUGUGAAUUUUUUUUUAAUAUGUGUCAUGAAUAAAGUUGUUUUUGAAA: -0.387
UCAAGUCCUGUGCUACACAUCGUAUGUACCGAAUCGGGGCCGGGGCCGGCCGGGAAAGUAUUAUGUUACGCCGUUCGGAUCUGCACUUCC: -0.0539
UCAAGUCCUGUGCUACACAUCGUAUGUACCGAAUCGGAAAAAGGUGGUUUUUGGAAAGUAUUAUGUUACGCCGUUCGGAUCUGCACUUCC: -0.538
AGUCCUGUGCUACACAUCGUAUGUACCGAAUCGGCCCCCGGGCCCCCGGGCCCCCGGGAAAGUAUUAUGUUACGCCGUUCGGAUCUGCAC: -2.61
